Measurements from different studies.
Each line is one published result; not all experiments were run side by side. Values joined by “and” are separate records of one study, mostly repeats; a detail may differ. Numbers after ± are the reported error.
Organism: HIV-1

SMILES | test | system | setting | EC50
O=C(O)c1cc(Br)cc(Br)c1-n1c(-c2ccccc2)nc2ccccc2c1=O | cytopathic effect | MT-4, IIIB | 5 days | 101 mg/L
C=C(C)[C@@H]1CC[C@]2(NCCN3CCS(=O)(=O)CC3)CC[C@]3(C)[C@H](CC[C@@H]4[C@@]5(C)CC=C(C6=CC[C@@](CF)(C(=O)O)CC6)C(C)(C)[C@@H]5CC[C@]43C)[C@@H]12 | viral load | human, HIV-1 patients, plasma |  | ~0.17 mg/L
Nc1ncnc2c1ncn2[C@@H]1O[C@H](CO)[C@@H](O)[C@@H]1O | viral replication, item: reverse transcriptase activity | human PBM cells, LAI | 144 h | > 100 µM
CCN(CC)CCCC(C)Nc1ccnc2cc(Cl)ccc12 (centres unmarked) | cytopathic effect | MT4, NL4.3 | 5 days | 31.7 ± 4.7 µM
Cc1ccc(N(C)C(=O)[C@H](Cc2ccccc2)NC(=O)CNC(=O)c2ccccc2)cc1 | viral replication | TZM-GFP, NL4-3 |  | 1.6 ± 0.02 µM
C=C(C)[C@H]1CCc2c(c(C)cc(O)c(=O)c2O)C1 | cytopathic effect | CEM-SS, RF |  | > 50 µM
Cc1cn([C@H]2C[C@H](N=[N+]=[N-])[C@@H](COC(=O)Cn3c(=O)ccn(CCCCCCCCCCCCOc4ccc(Br)cc4)c3=O)O2)c(=O)[nH]c1=O | viral replication, item: p24gag | MT4, Lai.04 | 3 days | 0.21 ± 0.1 µM
CCN(C(=O)[C@H](Cc1ccccc1)NC(=O)CNC(=O)c1ccccc1)c1ccccc1 | viral replication | TZM-GFP, NL4-3 |  | 2.5 ± 0.03 µM
c1nc2c(NCc3ccc(CNCCCNC4CCCCC4)cc3)nc(N3CCNCC3)nc2[nH]1 | viral replication, luciferase reporter | TZM-bl, IIIB |  | 0.002 ± 0.0001 µM
Cc1cn([C@H]2C[C@H](N=[N+]=[N-])[C@@H](COC(=O)Cn3c(=O)ccn(CCCCCCOc4ccc(Br)cc4)c3=O)O2)c(=O)[nH]c1=O | viral replication, item: p24gag | MT4, Lai.04 | 3 days | 0.53 ± 0.29 µM
O=C(O)c1cc(Br)cc(Br)c1-n1c(-c2ccccc2)nc2c(Br)cc(Br)cc2c1=O | cytopathic effect | MT-4, IIIB | 5 days | > 125 mg/L
Cc1cc(C#N)cc(C)c1Oc1nc(Nc2ccc(C#N)cc2)nc(N)c1Br | viral replication, luciferase reporter | TZM-bl, NL4-3 wild type |  | 0.00142 ± 0.00046 µM
COc1cc(F)c(C(=O)c2cc(N)nc(Nc3ccc(C#N)cc3)n2)c(F)c1 | cytoprotection | MT-4, IIIB | 5 days | 0.0044 µM
Cc1cc(C)cc(S(=O)(=O)c2c(C(=O)NCCCCCNS(=O)(=O)c3cccnc3)[nH]c3ccc(Cl)cc23)c1 | viral replication | MT-4, IIIB |  | 0.0076 ± 0.0027 µM
Cc1cc(Br)cc(C)c1Oc1cc(Nc2ccc(C#N)cc2)c(N)cc1[N+](=O)[O-] | viral replication, p24 ELISA | MT2, IIIB wild type |  | 0.052 ± 0.005 µM
O=C(CNC(=O)c1ccccc1)N[C@@H](Cc1ccccc1)C(=O)N1CCC[C@H]1C(=O)Nc1ccccc1 | viral replication | TZM-GFP, NL4-3 |  | > 20 µM
Cc1cc(C)cc(S(=O)(=O)c2c(C(=O)NCCCCNS(=O)(=O)c3ccc(Br)cc3)[nH]c3ccc(Cl)cc23)c1 | viral replication | MT-4, IIIB |  | 0.077 ± 0.031 µM
CN(C(=O)[C@H](Cc1ccccc1)NC(=O)CNC(=O)c1ccccc1)c1ccc(Cl)cc1 | viral replication | TZM-GFP, NL4-3 |  | 0.88 ± 0.02 µM
Cc1cn([C@H]2C[C@H](N=[N+]=[N-])[C@@H](COC(=O)Cn3c(=O)ccn(CCCCCCCCCCOc4ccc(Br)cc4)c3=O)O2)c(=O)[nH]c1=O | viral replication, item: p24gag | MT4, Lai.04 | 3 days | 0.44 ± 0.29 µM
COc1nc(NCCCNc2nc(Nc3ccc(C#N)c(OCC=C(C)C)c3)nc(OC)n2)nc(Nc2ccc(C#N)c(OCC=C(C)C)c2)n1 | protection from viral cytopathicity, MTT | MT-2, IIIB |  | > 6 µM
Cc1cc(C)cc(C(=O)c2cc(Cl)ccc2OCCn2c3c(c(=O)[nH]c2=O)CCC3)c1 | viral replication | MAGI-CCR5, Ba-L, CCR5-tropic | co-addition with virus | 0.003 µM
Cc1cc(C)cc(S(=O)(=O)c2c(C(=O)NCCCCNS(=O)(=O)c3cccc(F)c3)[nH]c3ccc(Cl)cc23)c1 | viral replication | MT-4, IIIB |  | 0.019 ± 0.0051 µM
O=C(O)c1ccccc1-n1c(-c2ccccc2)nc2ccc(Br)cc2c1=O | cytopathic effect | MT-4, IIIB | 5 days | 74.8 mg/L
Cc1cc(C)cc(S(=O)(=O)c2c(C(=O)NCCCNS(=O)(=O)c3ccc(Cl)cc3)[nH]c3ccc(Cl)cc23)c1 | viral replication | MT-4, IIIB |  | 0.017 ± 0.0067 µM

SMILES | test | system | setting | EC50
Nc1ncnc2c1ncn2[C@H]1CC[C@@H](CO)O1 | viral replication, supernatant RT activity | human PBM cells, LAI | 6 days | 0.59 µM
COc1nc(Nc2ccc(C#N)c(OCC=C(C)C)c2)nc(OCCCCOc2nc(Nc3ccc(C#N)c(OCC=C(C)C)c3)nc(OC)n2)n1 | protection from viral cytopathicity, MTT | MT-2, IIIB |  | > 6 µM
Cc1cc(C=C2C(=O)C=CC2=O)cc(C)c1O | infectious virus production, item: p24 | MT-4, IIIB | 3 d | 3.6 µM
Cc1nc(CN)cc2c1[nH]c1ccccc12 | cytopathic effect | MT4, NL4.3 | 5 days | > 100 µM
c1nc2c(NCc3cncc(CNCCCNC4CCCCC4)c3)nc(N3CCNCC3)nc2[nH]1 | viral replication, luciferase reporter | TZM-bl, IIIB |  | 0.0057 ± 0.001 µM
Cc1cc(C)cc(S(=O)(=O)c2c(C(=O)NCCCCNS(=O)(=O)c3ccccc3F)[nH]c3ccc(Cl)cc23)c1 | viral replication | MT-4, IIIB |  | 0.0091 ± 0.0025 µM
NC12CC3CC(CC(C3)C1)C2 | viral replication | PBMC |  | 94 µM
COc1cc2nc(NCc3ccc(CNCCCN4CCCCC4)cc3)nc(NC3CCNCC3)c2cc1OC | viral replication, luciferase reporter | TZM-bl, IIIB |  | 0.0262 ± 0.0044 µM
Cc1cn([C@H]2C[C@H](N=[N+]=[N-])[C@@H](CO)O2)c(=O)[nH]c1=O | viral replication | MT4, NL4-3 |  | 0.1 µM
c1nc2c(NCc3ccc(CNCCCNC4CCCCC4)cn3)nc(N3CCNCC3)nc2[nH]1 | viral replication, luciferase reporter | TZM-bl, IIIB |  | 0.0042 ± 0.0003 µM
Cc1ccc(S(=O)(=O)NCCCCCNC(=O)c2[nH]c3ccc(Cl)cc3c2S(=O)(=O)c2cc(C)cc(C)c2)cc1 | viral replication | MT-4, IIIB |  | 0.027 ± 0.005 µM
CN1CCN(c2nc(NCc3ccc(CNCCCNC4CCCCC4)cc3)c3ncn(C)c3n2)CC1 | viral replication, luciferase reporter | TZM-bl, IIIB |  | 0.0065 ± 0.0002 µM
Cc1cn([C@H]2C=C[C@@H](CO)O2)c(=O)[nH]c1=O | viral replication, supernatant RT activity | human PBM cells, LAI | 6 days | 0.069 µM and 0.073 µM
Cc1cc(C)cc(S(=O)(=O)c2c(C(=O)NCCNS(=O)(=O)c3cccs3)[nH]c3ccc(Cl)cc23)c1 | viral replication | MT-4, IIIB |  | 0.1 ± 0.027 µM
COc1cc(NC(C)CCCN)c2ncccc2c1 (centres unmarked) | cytopathic effect | MT4, NL4.3 | 5 days | > 100 µM
O=C(O)c1ccccc1-n1c(-c2ccccc2)nc2ccccc2c1=O | cytopathic effect | MT-4, IIIB | 5 days | > 125 mg/L
O=c1[nH]cnc2c1ncn2[C@H]1CC[C@@H](CO)O1 | viral cytopathicity | CEM, IIIB | 4 days | 4.6 ± 2.6 µM
Nc1nc2c(ncn2COCCOP(=O)(O)OP(=O)(O)OP(=O)(O)O)c(=O)[nH]1 | viral replication, item: p24 antigen | MT-4, LAI.04 | cells preincubated with compound overnight | 58 ± 2.6 µM
c1cc(CNCCCNC2CCCCC2)nc(CNc2nc(N3CCNCC3)nc3[nH]cnc23)c1 | viral replication, luciferase reporter | TZM-bl, IIIB |  | 0.0025 ± 0.0001 µM
O=c1[nH]c(=O)n([C@H]2C[C@H](OP(=O)(O)OC[C@H]3O[C@H](O)[C@H](O)[C@@H](O)[C@@H]3O)[C@@H](CO)O2)cc1I | viral replication, supernatant RT activity | human PBM cells, LAI | 6 days | > 100 µM
COc1cc2nc(NCc3ccc(CNCCCNC4CCCCC4)cc3)nc(NC3CCNCC3)c2cc1OC | viral replication, luciferase reporter | TZM-bl, IIIB |  | 0.0217 ± 0.003 µM
Cc1cc(C)cc(S(=O)(=O)c2c(C(=O)NCCCCCNS(=O)(=O)c3ccccc3)[nH]c3ccc(Cl)cc23)c1 | viral replication | MT-4, IIIB |  | 0.015 ± 0.0077 µM
Cc1cn([C@H]2C[C@H](N=[N+]=[N-])[C@@H](COC(=O)Cn3c(=O)ccn(CCCOc4ccc(Br)cc4)c3=O)O2)c(=O)[nH]c1=O | viral replication, item: p24gag | MT4, Lai.04 | 3 days | 1.96 ± 0.78 µM
